Measurements gathered from unrelated publications.
Lines come from different studies, so protocols differ. Several values in a cell are separate wells, animals, samples, runs or records. Numbers after ± are the reported error.
RORC: Nuclear receptor ROR-gamma (RORC, Homo sapiens, UniProt P51449)
Genome polyprotein NS3 helicase domain: Genome polyprotein, NS3 helicase domain (Hepatitis C virus genotype 1b, UniProt Q9WMX2)
CDK2 with cyclin A: Cyclin-dependent kinase 2, with cyclin A (CDK2, Homo sapiens, UniProt P24941)
CIT: Citron Rho-interacting kinase (CIT, Homo sapiens, UniProt O14578)
CALM1 Ca2+-bound N-lobe: Calmodulin-1, Ca2+-bound N-lobe (CALM1, Homo sapiens, UniProt P0DP23)
WD repeat-containing protein 91 WD40 domain, residues 392–747: WD repeat-containing protein 91, WD40 domain, residues 392–747 (Homo sapiens, UniProt A4D1P6)
ESR1: Estrogen receptor (ESR1, Homo sapiens, UniProt P03372)
T1: Broccoli RNA aptamer; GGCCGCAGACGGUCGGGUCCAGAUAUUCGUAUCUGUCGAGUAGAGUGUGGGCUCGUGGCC
T2: RNA aptamer; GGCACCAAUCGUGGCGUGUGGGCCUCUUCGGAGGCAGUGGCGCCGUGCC

| Structure (SMILES) | target | test | test system | conditions | how to read | endpoint | value |
| --- | --- | --- | --- | --- | --- | --- | --- |
| CC[C@@H]1[C@H](F)C(=O)N[C@@H]1COc1nccc2cc(C(N)=O)c(OC)cc12 | MAP2K4 (Homo sapiens, UniProt P45985) | ATP-site probe binding, ActivX profiling | THP-1 cell lysate | 0.2 mM, Lys2 site |  | inhibition | 15.8% |
| COc1ccccc1COc1ccc2c(c1)N(S(=O)(=O)c1cccc(C(F)(F)F)c1)CC2 | RORC | reporter gene, agonist, GAL4 luciferase reporter |  | added: ursolic acid 2 µM | baseline: DMSO | maximum fold change | 0.62 ± 0.16 |
| [H]/N=C(/NC)NCCC[C@H](N)C(=O)O | Genome polyprotein NS3 helicase domain | DNA binding, inhibitor | hepatitis C virus | 100 µM, added: Cy5-dT15 DNA |  | inhibition | 0% |
| CCOC(=O)c1cnc(Nc2nc3ccccc3o2)nc1CN1CCN(c2ccccc2)CC1 | CDK2 with cyclin A |  |  |  |  | Kd | > 100 µM |
| C=CC(=O)N1CCC(COCC(=O)N2CCN(c3nc(-c4cnc(N)nc4C(F)F)nc(N4CCOC[C@@H]4C)n3)CC2)CC1 | CIT | KINOMEscan |  | 1 µM | baseline: DMSO control | remaining binding | 91% |
| CC[C@H](C)[C@H](NC(=O)[C@H](CCCCN)NC(=O)CNC(=O)[C@@H](NC(=O)[C@@H](NC(=O)[C@H](CCSC)NC(=O)[C@H](Cc1c[nH]cn1)NC(=O)CN)[C@@H](C)O)C(C)C)C(=O)N[C@@H](Cc1ccc(O)cc1)C(=O)N[C@@H](C)C(=O)N[C@@H](C)C(=O)N[C@@H](CCSC)C(=O)N[C@@H](CCSC)C(=O)N[C@H](C(=O)N[C@@H](CCSC)C(=O)N[C@@H](CCC(=O)O)C(=O)N[C@@H](C)C(=O)N[C@@H](Cc1ccc(O)cc1)C(=O)N[C@@H](CCCNC(=N)N)C(=O)N[C@@H](CCC(N)=O)C(=O)N[C@@H](CO)C(=O)N[C@@H](CCCCN)C(=O)N[C@@H](C)C(=O)N[C@@H](CCCCN)C(=O)N[C@@H](CCCCN)C(=O)N[C@@H](CC(C)C)C(=O)N[C@@H](CCC(N)=O)C(=O)N[C@@H](C)C(=O)N[C@@H](CCSC)C(=O)N[C@@H](CCCNC(=N)N)C(=O)O)[C@@H](C)CC | CALM1 Ca2+-bound N-lobe | binding, isothermal titration calorimetry |  | pH 7.4, 15 °C, N-lobe, CaV2.1 IQ domain, added: Ca2+ |  | stoichiometry | 0.95 ± 0.19 |
| C=CC(=O)N1CCC(C(=O)NCC(=O)N2CCN(c3nc(-c4cnc(N)nc4C(F)F)nc(N4CCOCC4)n3)CC2)CC1 | CIT | KINOMEscan |  | 1 µM |  | remaining binding | 100% |
| CN(C)CCC=C1c2ccccc2CCc2ccccc21 | Voltage-gated potassium channel, KQT; KCNQ2(Kv7.2)/KCNQ3(Kv7.3) (KCNQ3/KCNQ2, Homo sapiens, UniProt O43525+O43526) | potassium current, antagonist, automated patch clamp | HEK293 cells |  |  | IC50 | 9.78 µM |
| N[C@@H](Cc1ccccc1)C(=O)O | N-alpha-acetyltransferase 80 (NAA80, Homo sapiens, UniProt Q93015) | substrate, DTNB |  | 2 mM, 30 min, 37 °C, added: acetyl-CoA 500 µM |  | product formation | -1.01 µM |
| CO/N=C(\C(=O)N[C@@H]1C(=O)N2C(C(=O)O)=C(COC(C)=O)CS[C@H]12)c1csc(N)n1 | Genome polyprotein NS3 helicase domain | DNA binding, inhibitor | hepatitis C virus | 100 µM, added: Cy5-dT15 DNA |  | inhibition | 6% |
| CCN1CCC[C@H]1CNC(=O)c1c(O)c(Cl)cc(Cl)c1OC | Probable G-protein coupled receptor 45 (GPR45, Homo sapiens, UniProt Q9Y5Y3) | β-arrestin recruitment, TANGO luminescence, item: GPR45 |  | concentration not given | baseline: basal luminescence | log2 fold change | -0.109 |
| CC1=C(/C=C/C(C)=C/C=C/C(C)=C/C=C/C=C(C)/C=C/C=C(C)/C=C/C2=C(C)CCCC2(C)C)C(C)(C)CCC1 | Beta-lactoglobulin (LGB, Bos taurus, UniProt P02754) | fluorescence quenching |  | 308 K |  | Stern-Volmer quenching constant | 9200 ± 700 L/mol |
| OCc1cc(C(O)CNCCCCCCOCCCCc2ccccc2)ccc1O (centres unmarked) | Genome polyprotein NS3 helicase domain | DNA binding, inhibitor | hepatitis C virus | 100 µM, added: Cy5-dT15 DNA |  | inhibition | 2% |
| Cc1ccc(-c2cc(C(=O)N3CCN(c4cccc(C(F)(F)F)c4)CC3)c3ccccc3n2)o1 | RORC | cell-based |  | concentration not given |  | activity class | active |
| Nc1ncnc2c1ncn2[C@@H]1O[C@H](COP(=O)(O)OP(=O)(O)OP(=O)(O)O)[C@@H](O)[C@H]1O | Hexokinase-3 (HK3, Homo sapiens, UniProt P52790) | enzyme activity, substrate, coupled G6PDH |  | Michaelis-Menten fit, added: glucose 0.5 mM |  | kcat | 46 ± 12 s⁻¹ |
| CC1=N/C(=C\c2cc(F)c(O)c(F)c2)C(=O)N1CC(F)(F)F | T1, Broccoli RNA aptamer | fluorescence turn-on |  |  |  | binding | binds |
| CC[C@H](C)[C@H](NC(=O)[C@H](CCSC)NC(=O)[C@H](CCSC)NC(=O)[C@H](C)NC(=O)[C@H](C)NC(=O)[C@H](Cc1ccc(O)cc1)NC(=O)[C@@H](NC(=O)[C@H](CCCCN)NC(=O)CNC(=O)[C@@H](NC(=O)[C@@H](NC(=O)[C@H](CCSC)NC(=O)[C@H](Cc1c[nH]cn1)NC(=O)CN)[C@@H](C)O)C(C)C)[C@@H](C)CC)C(=O)N[C@@H](C)C(=O)N[C@@H](CCC(=O)O)C(=O)N[C@@H](Cc1ccc(O)cc1)C(=O)N[C@@H](Cc1ccc(O)cc1)C(=O)N[C@@H](CCCNC(=N)N)C(=O)N[C@@H](CCC(N)=O)C(=O)N[C@@H](CO)C(=O)N[C@@H](CCCCN)C(=O)N[C@@H](C)C(=O)N[C@@H](CCCCN)C(=O)N[C@@H](CCCCN)C(=O)N[C@@H](CC(C)C)C(=O)N[C@@H](CCC(N)=O)C(=O)N[C@@H](C)C(=O)N[C@@H](CCSC)C(=O)N[C@@H](CCCNC(=N)N)C(=O)O | CALM1 Ca2+-bound N-lobe | binding, isothermal titration calorimetry |  | pH 7.4, 15 °C, N-lobe, CaV2.1 IQ domain, added: Ca2+ |  | ΔH | -3.34 ± 1.15 kcal/mol |
| CN(C)CC[C@@H](c1ccc(Br)cc1)c1ccccn1 | Genome polyprotein NS3 helicase domain | DNA binding, inhibitor | hepatitis C virus | 100 µM, added: Cy5-dT15 DNA |  | inhibition | 0% |
| Nc1ncnc2c1ncn2[C@@H]1O[C@H](COP(=O)(O)CP(=O)(O)OP(=O)(O)O)[C@@H](O)[C@H]1O | P2X purinoceptor 1 (P2RX1, Homo sapiens, UniProt P51575, K136W) | saturation binding | HEK293 | 79 nM |  | specific binding | 4360 CCPM and 2630 CCPM |

| Structure (SMILES) | target | test | test system | conditions | how to read | endpoint | value |
| --- | --- | --- | --- | --- | --- | --- | --- |
| NC(=O)c1ccc2[nH]ccc2c1 | Genome polyprotein NS3 helicase domain | DNA binding, inhibitor | hepatitis C virus | 100 µM, added: Cy5-dT15 DNA |  | inhibition | 0% |
| CCCC[C@H](NC(=O)[C@H](C)c1c(C)[nH]c2ccc(O)cc12)c1ncc(-c2cc3ccccc3nc2OC)[nH]1 | CNR1 (Homo sapiens, UniProt P21554) |  |  | 10 µM |  | effect | 53% |
| N#Cc1cccc2c1CC[C@H]2NC(=O)c1ccc(SCc2cn3ccccc3n2)cc1 | WD repeat-containing protein 91 WD40 domain, residues 392–747 | SPR |  | 45 µM |  | binding | 70% and 112% |
| C[C@@H]1O[C@@H](O[C@H]2[C@H](Oc3cc(O)c(C(=O)CCc4ccc(O)cc4)c(O)c3)O[C@H](CO)[C@@H](O)[C@@H]2O)[C@H](O)[C@H](O)[C@H]1O | ESR1 | array formation | PRL-HeLa |  | baseline: EC50 ERβ over EC50 ERα | selectivity ratio | 0.56 |
| O=c1c(O)c(-c2ccc(O)c(O)c2)oc2cc(O)cc(O)c12 | Genome polyprotein NS3 helicase domain | DNA binding, inhibitor | hepatitis C virus | 100 µM, added: Cy5-dT15 DNA |  | inhibition | 2% |
| CCCCCCCCC(=O)c1cc(O)c(O)c(O)c1 | Nuclear receptor subfamily 4 group A member 3, ligand-binding domain (Homo sapiens, UniProt Q92570) | reporter gene, Gal4 hybrid reporter |  | 10 µM | baseline: vehicle | activation | 2.14 fold |
| Cn1c(Cc2ccccc2)nnc1Sc1ccc([N+](=O)[O-])cc1C(=O)N1CCOCC1 | CDK2 with cyclin A |  |  |  |  | Kd | > 100 µM |
| O=c1[nH]c(=S)[nH]c(-c2ccccc2)c1Cc1c(O)ccc2ccccc12 | Genome polyprotein NS3 helicase domain | DNA binding, inhibitor | hepatitis C virus | 100 µM, added: Cy5-dT15 DNA |  | inhibition | 0% |
| Cc1cccc(N2CC(C(=O)O)CC2=O)c1 (centres unmarked) | SPRY domain-containing SOCS box protein 2, SPRY domain (Homo sapiens, UniProt Q99619) | binding, affinity selection mass spectrometry |  |  | baseline: other proteins in batch | fold enrichment | 1.42 |
| CN(CCO)c1ccc(/C=C(\C#N)c2ccc(C#N)cc2)cc1 | T2, RNA aptamer | fluorescence titration, Hill fit |  | apparent |  | Kd | 0.14 µM |
| CCOCc1nc(O)c(-c2nnc(Cc3ccc(Cl)cn3)o2)c(O)c1-c1c(OC)cccc1OC | Apelin receptor (APLNR, Homo sapiens, UniProt P35414) | GαoB activation, agonist, BRET biosensor | HEK293 |  |  | Emax | 110 ± 5% |
| N#Cc1ccc2[nH]cc(CCCCN3CCN(c4ccc5oc(C(N)=O)cc5c4)CC3)c2c1 | SLC6A4 (Homo sapiens, UniProt P31645, E494Q) | [3H]5-HT uptake, inhibitor | COS-7 |  |  | Hill coefficient | 1.27 ± 0.25 |
| CCOc1ccc2c(-c3cc(C)nc(Nc4cc(OC)cc(C(F)(F)F)c4)n3)cnn2n1 | HIPK2 (Homo sapiens, UniProt Q9H2X6) | NanoBRET target engagement | live cells | concentration not given, no binding |  | binding | no binding |
| N#CC1CCN(C(=O)c2ccc(CSc3nc4ccccc4s3)cc2)CC1 | WD repeat-containing protein 91 WD40 domain, residues 392–747 | binding, SPR single-concentration screen |  | 45 µM |  | SPR response | 7.5 RU and 13.5 RU |
| Nc1ncnc2c1ncn2[C@@H]1O[C@H](CO[P@](=O)(O)O[P@](=O)(O)O[P@@](=O)(O)S)[C@@H](O)[C@H]1O | GUK1 (Homo sapiens, UniProt Q16774) | ITC |  | concentration not given |  | -TΔS of binding | -1.81 kcal/mol |
| N#Cc1cccc2c1CC[C@H]2NC(=O)c1ccc(S(=O)(=O)NCc2ccco2)cc1 | WD repeat-containing protein 91 WD40 domain, residues 392–747 | SPR |  | 45 µM |  | binding | 56% and 48% |
| CCN1CCN(c2cc(N3CCN(CC)CC3)nc(NCCNc3ccnc4cc(Cl)ccc34)n2)CC1 | RORC | reporter gene, Gal4 hybrid reporter |  | 20 µM | baseline: vehicle | activation | 0.77 fold |
| CCNC(=O)[C@H]1O[C@@H](n2cnc3c(N)nc(NCCc4ccc(CCC(=O)O)cc4)nc32)[C@H](O)[C@@H]1O.Cl | Genome polyprotein NS3 helicase domain | DNA binding, inhibitor | hepatitis C virus | 100 µM, added: Cy5-dT15 DNA |  | inhibition | 0% |
| CC1(C)C=Cc2c(ccc3c2OC[C@@H](c2ccc(O)cc2O)C3)O1 | ESR1 | array formation | PRL-HeLa |  | baseline: EC50 ERβ over EC50 ERα | selectivity ratio | 0.0939 |

Repeated from above:
| Structure (SMILES) | target | test | test system | conditions | how to read | endpoint | value |
| --- | --- | --- | --- | --- | --- | --- | --- |
| Cc1cccc(N2CC(C(=O)O)CC2=O)c1 (centres unmarked) | SPRY domain-containing SOCS box protein 2, SPRY domain (Homo sapiens, UniProt Q99619) | binding, affinity selection mass spectrometry |  |  | baseline: other proteins in batch | fold enrichment | 1.42 |
| Cn1c(Cc2ccccc2)nnc1Sc1ccc([N+](=O)[O-])cc1C(=O)N1CCOCC1 | CDK2 with cyclin A |  |  |  |  | Kd | > 100 µM |
| Nc1ncnc2c1ncn2[C@@H]1O[C@H](CO[P@](=O)(O)O[P@](=O)(O)O[P@@](=O)(O)S)[C@@H](O)[C@H]1O | GUK1 (Homo sapiens, UniProt Q16774) | ITC |  | concentration not given |  | -TΔS of binding | -1.81 kcal/mol |
